Measured values pooled from the literature.
Each line is one published result; not all experiments were run side by side. Numbers after ± are the reported error.

Structure (SMILES) | assay | test system | setting | scale | measurement | value
C[C@H](Cn1cnc2c(N)ncnc21)OCP(=O)(O)O | population PK modelling | people living with HIV, plasma | oral, dose not given, after tenofovir alafenamide dosing, base model | – | apparent volume of distribution | 2660 L
O=C(C1CCCCC1)N1CC(=O)N2CCc3ccccc3[C@@H]2C1 | – | healthy men, plasma | oral, 40 mg/kg racemic praziquantel, geometric mean, without ritonavir | – | apparent oral clearance | 2340 L/h
C[C@@H]1CCO[C@H]2Cn3cc(C(=O)NCc4ccc(F)cc4F)c(=O)c(O)c3C(=O)N12 | population PK model | HIV-infected patients | oral | – | apparent clearance (CL/F) | 0.901 L/h
C=CC(=O)N1CCC(CNc2ncnc(N)c2-c2ccc(Oc3ccccc3)cc2)CC1 | population PK model | patients with relapsing multiple sclerosis | dose not given | relative to: healthy participants | apparent clearance reduction | 40.6%
COc1cc2nccc(Oc3ccc(NC(=O)NC4CC4)c(Cl)c3)c2cc1C(N)=O | – | healthy volunteers | oral, dose not given, added: ketoconazole | relative to: placebo | apparent volume of distribution | ~10 % decrease
CC#CC(=O)N1CCC[C@H]1c1nc(-c2ccc(C(=O)Nc3ccccn3)cc2)c2c(N)nccn12 | – | Japanese patients, plasma | oral, 100 mg single dose, fasting, arithmetic mean | – | apparent volume of distribution (Vz/F) | 1940 ± 2900 L
CC[C@H](C)[C@H](NC(=O)[C@H](Cc1ccccc1)NC(=O)[C@H](CCC(=O)O)NC(=O)[C@H](CCCCNC(=O)COCCOCCNC(=O)COCCOCCNC(=O)CC[C@H](NC(=O)CCCCCCCCCCCCCCCCC(=O)O)C(=O)O)NC(=O)[C@H](C)NC(=O)[C@H](C)NC(=O)[C@H](CCC(N)=O)NC(=O)CNC(=O)[C@H](CCC(=O)O)NC(=O)[C@H](CC(C)C)NC(=O)[C@H](Cc1ccc(O)cc1)NC(=O)[C@H](CO)NC(=O)[C@H](CO)NC(=O)[C@@H](NC(=O)[C@H](CC(=O)O)NC(=O)[C@H](CO)NC(=O)[C@@H](NC(=O)[C@H](Cc1ccccc1)NC(=O)[C@@H](NC(=O)CNC(=O)[C@H](CCC(=O)O)NC(=O)C(C)(C)NC(=O)[C@@H](N)Cc1cnc[nH]1)[C@@H](C)O)[C@@H](C)O)C(C)C)C(=O)N[C@@H](C)C(=O)N[C@@H](Cc1c[nH]c2ccccc12)C(=O)N[C@@H](CC(C)C)C(=O)N[C@H](C(=O)N[C@@H](CCCNC(=N)N)C(=O)NCC(=O)N[C@@H](CCCNC(=N)N)C(=O)NCC(=O)O)C(C)C | – | Caucasian subjects | subcutaneous, 1.0 mg, steady state, once weekly, geometric mean | – | apparent volume of distribution | 7.84 L
C=C[C@@H]1C[C@]1(NC(=O)[C@@H]1C[C@@H](Oc2ncc(OC)c3ccc(Cl)cc23)CN1C(=O)[C@@H](NC(=O)OC(C)(C)C)C(C)(C)C)C(=O)NS(=O)(=O)C1CC1 | – | Japanese HCV patients | typical female 55 kg | – | apparent clearance (CL/F) | 52.1 L/h
O=C(Nc1nc2cccc(-c3ccc(CN4CCS(=O)(=O)CC4)cc3)n2n1)C1CC1 | – | healthy subjects | oral, 100 mg single dose, 1 h after itraconazole, fasting, mean, added: itraconazole 200 mg | – | apparent clearance (CL/F) | 33.3 L/h
Cn1c(-c2ccc(C(N)=O)cc2F)nnc1C(C)(C)Oc1c(F)cc(Cl)cc1F | – | young non-Japanese healthy subjects, plasma | oral, 0.2 mg once daily, 3 mg loading day 1, mean, last dosing day | – | apparent volume of distribution Vz/F | 2890 L
O=C1OC2(c3ccc(O)cc3Oc3cc(O)ccc32)c2ccccc21 | – | human BBB triple coculture | concentration not given, apical to basolateral | – | apparent permeability | 0.22 ×10⁻⁶ cm/s
Cn1cc(-c2cnc3cnn(S(=O)(=O)c4cnc5ccc(-c6cnn(C)c6)cn45)c3c2)cn1 | – | healthy Chinese men, plasma | oral, 300 mg single dose, low-fat meal | – | apparent volume of distribution | 218 L
CC(C)c1nc(CN(C)C(=O)N[C@H](C(=O)N[C@@H](Cc2ccccc2)C[C@H](O)[C@H](Cc2ccccc2)NC(=O)OCc2cncs2)C(C)C)cs1 | median | HIV and HCV patients, plasma | oral, lopinavir/ritonavir twice daily | – | apparent clearance | 2.83 mL/min/kg
COC(=O)N[C@H](C(=O)N1CCC[C@H]1c1nc(-c2ccc(-c3ccc(-c4c[nH]c([C@@H]5CCCN5C(=O)[C@@H](NC(=O)OC)C(C)C)n4)cc3)cc2)c[nH]1)C(C)C | – | Japanese HCV patients | typical male 56 kg, added: asunaprevir | – | apparent clearance (CL/F) | 5.29 L/h
CC(C)Cc1ccc(C(C)C(=O)O)cc1 (stereo not drawn) | – | 1-octanol/buffer | pH 7.5 | – | apparent partition coefficient | 5.2

A few entries again:
Structure (SMILES) | assay | test system | setting | scale | measurement | value
O=C(C1CCCCC1)N1CC(=O)N2CCc3ccccc3[C@@H]2C1 | – | healthy men, plasma | oral, 40 mg/kg racemic praziquantel, geometric mean, without ritonavir | – | apparent oral clearance | 2340 L/h
